{"data": "Measured values of several laboratories", "target": "Amine oxidase [flavin-containing] A (MAOA, Homo sapiens, UniProt P21397)", "read-out": "enzyme activity", "action": "inhibitor", "concentration": "10 µM", "note": "Lines come from different studies, so protocols differ.", "UniProt P21397, sequence (whole entry, looked up)": "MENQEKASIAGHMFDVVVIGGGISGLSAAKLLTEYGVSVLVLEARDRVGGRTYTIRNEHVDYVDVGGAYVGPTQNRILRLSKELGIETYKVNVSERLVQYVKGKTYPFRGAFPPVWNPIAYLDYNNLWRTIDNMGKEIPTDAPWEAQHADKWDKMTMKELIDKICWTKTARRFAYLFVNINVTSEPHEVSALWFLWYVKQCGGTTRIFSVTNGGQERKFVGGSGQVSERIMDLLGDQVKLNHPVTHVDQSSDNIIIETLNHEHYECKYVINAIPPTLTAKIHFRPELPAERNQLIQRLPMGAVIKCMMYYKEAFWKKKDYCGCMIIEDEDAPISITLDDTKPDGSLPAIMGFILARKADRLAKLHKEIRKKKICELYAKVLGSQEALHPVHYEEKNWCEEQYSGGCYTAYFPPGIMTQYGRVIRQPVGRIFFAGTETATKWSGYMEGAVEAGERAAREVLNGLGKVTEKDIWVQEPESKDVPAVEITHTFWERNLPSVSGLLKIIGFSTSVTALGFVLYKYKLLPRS"}
{"Structure (SMILES)": "NC(=O)N/N=C/c1cccc(OCc2ccccc2)c1", "assay": "absorbance", "remaining activity [%]": 66.6}
{"Structure (SMILES)": "O=C1c2cc(F)ccc2NC12CCCC2", "remaining activity [%]": 68.7}
{"Structure (SMILES)": "CNC(=S)N/N=C/c1ccc(OCc2cccc(F)c2)cc1", "assay": "absorbance", "remaining activity [%]": 88.8}
{"Structure (SMILES)": "O=C(/C=C/c1ccccc1Br)c1cc2ccccc2oc1=O", "remaining activity [%]": 86.8}
{"Structure (SMILES)": "Cc1ccc(/C=C/C(=O)c2ccc(N3CCNCC3)cc2)cc1", "remaining activity [%]": 82.9}
{"Structure (SMILES)": "O=C(/C=C/c1ccc(Br)cc1)c1cc2ccccc2oc1=O", "remaining activity [%]": 87.3}
{"Structure (SMILES)": "O=C(/C=C/c1ccc(Cl)cc1)c1ccc(N2CCNCC2)cc1", "remaining activity [%]": 99.2}
{"Structure (SMILES)": "NC(=O)N/N=C/c1ccccc1OCc1ccccc1", "assay": "absorbance", "remaining activity [%]": 169}
{"Structure (SMILES)": "O=C(/C=C/c1ccc(Br)cc1)c1ccc(N2CCNCC2)cc1", "remaining activity [%]": 98.6}
{"Structure (SMILES)": "N#Cc1ccc(CN2c3ccccc3C(=O)C23CCCC3)cc1", "remaining activity [%]": 63.5}
{"Structure (SMILES)": "NC(=S)N/N=C/c1ccccc1OCc1ccccc1", "assay": "absorbance", "remaining activity [%]": 66}
{"Structure (SMILES)": "CN(C)c1ccc(/C=C/C(=O)c2ccc(N3CCNCC3)cc2)cc1", "remaining activity [%]": 80.1}
{"Structure (SMILES)": "O=C1c2cc(Br)ccc2NC12CCCC2", "remaining activity [%]": 75.5}
{"Structure (SMILES)": "O=C(/C=C/c1ccccc1F)c1cc2ccccc2oc1=O", "remaining activity [%]": 83.1}
{"Structure (SMILES)": "O=C1c2ccccc2N(Cc2ccccc2)C12CCCC2", "remaining activity [%]": 80.7}
{"Structure (SMILES)": "Fc1cccc(COc2ccc(/C=N/NC(=S)Nc3ccccc3)cc2)c1", "assay": "absorbance", "remaining activity [%]": 97.4}
{"Structure (SMILES)": "O=C(/C=C/c1ccc(C(F)(F)F)cc1)c1ccc(N2CCNCC2)cc1", "remaining activity [%]": 80.9}
{"Structure (SMILES)": "NC(=S)N/N=C/c1ccc(OCc2cccc(F)c2)cc1", "assay": "absorbance", "remaining activity [%]": 46.1}
{"Structure (SMILES)": "O=C(/C=C/c1ccccc1)c1cc2ccccc2oc1=O", "remaining activity [%]": 94.8}
{"Structure (SMILES)": "O=C1c2cc(Cl)ccc2N(Cc2ccccc2)C12CCCC2", "remaining activity [%]": 66}
{"Structure (SMILES)": "O=C(/C=C/c1ccc(O)cc1)c1ccc(N2CCNCC2)cc1", "remaining activity [%]": 76.4}
{"note": "Repeated from above:"}
{"Structure (SMILES)": "O=C(/C=C/c1ccc(Cl)cc1)c1ccc(N2CCNCC2)cc1", "remaining activity [%]": 99.2}
{"Structure (SMILES)": "NC(=O)N/N=C/c1ccccc1OCc1ccccc1", "assay": "absorbance", "remaining activity [%]": 169}
